Measurements pooled from the literature.
Target: Bifunctional epoxide hydrolase 2 (EPHX2, Homo sapiens, UniProt P34913)
Sequence of UniProt P34913 (whole entry, looked up): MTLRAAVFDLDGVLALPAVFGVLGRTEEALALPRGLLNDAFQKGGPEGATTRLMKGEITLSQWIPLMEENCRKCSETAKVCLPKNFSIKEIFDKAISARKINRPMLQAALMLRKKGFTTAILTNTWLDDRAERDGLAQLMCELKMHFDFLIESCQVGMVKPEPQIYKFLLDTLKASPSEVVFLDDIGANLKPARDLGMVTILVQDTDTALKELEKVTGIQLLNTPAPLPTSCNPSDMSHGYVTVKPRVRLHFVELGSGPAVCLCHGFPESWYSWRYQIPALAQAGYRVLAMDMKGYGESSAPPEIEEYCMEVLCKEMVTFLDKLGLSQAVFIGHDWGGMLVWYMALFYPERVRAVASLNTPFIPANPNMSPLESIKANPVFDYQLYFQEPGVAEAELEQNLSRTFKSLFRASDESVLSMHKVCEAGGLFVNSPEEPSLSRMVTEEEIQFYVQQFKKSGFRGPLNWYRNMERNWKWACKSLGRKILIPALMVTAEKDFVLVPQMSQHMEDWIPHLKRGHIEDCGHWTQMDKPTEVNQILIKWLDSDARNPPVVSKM
Observed: enzyme activity
Action: inhibitor

SMILES	method	pH	setting	IC50 [nM]
CC(=O)N1CCN(C(=O)c2ccc(NC(=O)NC34CC5CC(C)(CC(C)(C5)C3)C4)cc2)CC1				1.21
CC1(C)[C@H]2CC[C@]1(C)[C@@H](NC(=O)Nc1ccc(F)cc1)C2	fluorescence			4
O=C(Nc1ccc(-c2nc(-c3ccccc3)cs2)cc1)C1CCN(Cc2ccccc2F)CC1	fluorescence	pH 7.4	with preincubation	1180
CC12CC3CC(C)(C1)CC(NC(=O)Nc1ccc(C(=O)N4CCC[C@H](NS(C)(=O)=O)C4)cc1F)(C3)C2				0.11
O=C(Nc1ccc(-c2nc(-c3ccccc3)cs2)cc1)C1CCN(Cc2ccccc2[N+](=O)[O-])CC1	fluorescence	pH 7.4	with preincubation	101
O=C(/C=C/c1ccc(O)c(O)c1)NCCc1ccc(O)cc1				3200
O=C(Nc1ccc(-c2nc(-c3ccccc3)cs2)cc1)C1CCN(Cc2cccc(O)c2)CC1	fluorescence	pH 7.4	with preincubation	224
CONC(=O)C1CCN(C(=O)c2ccc(NC(=O)NC34CC5CC(C)(CC(C)(C5)C3)C4)cc2)CC1				0.92
O=C(Nc1ccc(-c2nc(-c3ccccc3)cs2)cc1)C1CCN(Cc2cccnc2)CC1	fluorescence	pH 7.4	with preincubation	38.8
N#CC1=C(N)n2c(nnc2-c2ccccc2)NC1c1ccc(Br)cc1 (stereo not shown)	fluorescence			3.2
CC12CC3CC(C)(C1)CC(NC(=O)NC14CC5(C)CC(C)(CC(C)(C5)C1)C4)(C3)C2	fluorescence			160
CCC(=O)NC1CCN(C(=O)c2ccc(NC(=O)NC34CC5CC(C)(CC(C)(C5)C3)C4)cc2)CC1				0.6
O=C(NCCc1ccc(O)cc1)c1cc2cc(O)c(O)cc2c(-c2ccc(O)c(O)c2)c1C(=O)NCCc1ccc(O)cc1				18300

Some of these lines once more:
SMILES	method	pH	setting	IC50 [nM]
O=C(Nc1ccc(-c2nc(-c3ccccc3)cs2)cc1)C1CCN(Cc2cccc(O)c2)CC1	fluorescence	pH 7.4	with preincubation	224
CONC(=O)C1CCN(C(=O)c2ccc(NC(=O)NC34CC5CC(C)(CC(C)(C5)C3)C4)cc2)CC1				0.92
